Measurements gathered from unrelated publications.
Parts stem from different laboratories: compare values within a part only.

Study 1 — method: protein-binding microarray; form: double-stranded DNA, one strand shown; medium: in vitro; concentration: 940 nM top; setting: 60-bp whole probe; added: salmon DNA 0.4 mg/ml; reference: random background probes; reading: higher = stronger binding; all sequences stand within: GCCTAGCAC … GTCTTGATTCGCTTGACGCTGCTG
Target: Interferon regulatory factor 5, full length, phosphomimetic (IRF5, Homo sapiens, UniProt Q13568-2, residues 1-514, S451D/S453D/S456D/S462D)
`GACGGTATCGGGTTGCGGGACGTGCTA` — result for “fitted relative affinity”: 4.66 z-score.
For `TACAAATCCAGCCCTACAGAGTGCTAG`, “fitted relative affinity” read 0.469 z-score.
`GACGAACTGGGGTATCGAGGCGTGCTA`: “fitted relative affinity” 0.682 z-score.
`GACGGTCTCCTTAACCTGACGTGCTAG` — result for “fitted relative affinity”: 0.336 z-score.
Under “fitted relative affinity”, `TTAGAACTGAATCTCGATTAGTGCTAG` is recorded as 0.453 z-score.
For `GACGGTATCGGACTGGAGACGTGCTAG`, “fitted relative affinity” read 2.46 z-score.
For `TCATATATCTTATCCTAACTGTGCTAG`, “fitted relative affinity” read 1.19 z-score.
For `TCAGTTACCCCTCATCAAACTGTGCTA`, “fitted relative affinity” read 0.749 z-score.
For `CGGGCTTTCCCGTCCAGGGCGTGCTAG`, “fitted relative affinity” read -0.0534 z-score.
`GACGAACTGGGGTGTCGAGACGTGCTA` — result for “fitted relative affinity”: 0.04 z-score.
For `TCAGATATCAGACTGGATTAGTGCTAG`, “fitted relative affinity” read -0.276 z-score.
`GACGGTTTCCACTATCGGGACGTGCTA` — result for “fitted relative affinity”: 1.24 z-score.
`GACGGACTGGACTATCAGGACGTGCTA`: “fitted relative affinity” -0.216 z-score.
`GACGCTTTCGGGTATCGAGACGTGCTA`: “fitted relative affinity” 4.09 z-score.
Under “fitted relative affinity”, `GCCGGACTGGGGTATCGGGACGTGCTA` is recorded as 0.247 z-score.
Under “fitted relative affinity”, `TTAGATTACAGTTCCGATTAGTGCTAG` is recorded as 1.22 z-score.
For `CACTATTTAAGACCTATGCACGTGCTA`, “fitted relative affinity” read 0.132 z-score.
Under “fitted relative affinity”, `CCCAATCTCTCTTCACATATGTGCTAG` is recorded as 1.54 z-score.
`TCATTTCTCCTTTCCAAACTGTGCTAG`: “fitted relative affinity” 1.75 z-score.
For `TTGGATATCGGGTATCGATTAGTGCTA`, “fitted relative affinity” read 2.65 z-score.
`TTAGGTATCGGGTCTGGGTTAGTGCTA` — result for “fitted relative affinity”: 5.56 z-score.
`TCACTTCTGTATTCATGACTGTGCTAG`: “fitted relative affinity” 1.05 z-score.
For `GACGGACTGGACTTACGGGACGTGCTA`, “fitted relative affinity” read -0.554 z-score.
`TATATTATATATTTATGTATGTGCTAG`: “fitted relative affinity” 0.0898 z-score.
`CCCTAGGGGCTCTCAGAGATGTGCTAG` — result for “fitted relative affinity”: -0.708 z-score.

Study 2 — method: RNA Bind-n-Seq; form: RNA; medium: in vitro; concentration: 365 nM; reference: no-protein control; reading: higher = stronger binding
Target: RNA binding protein fox-1 homolog 2, RRM domain, GST-SBP tag (RBFOX2, Homo sapiens, UniProt O43251-10, residues 100-194)
Setting: natural RNA segment, single round, ends assumed
All sequences stand within: GGGAGUUCUACAGUCCGACGAUC … UGGAAUUCUCGGGUGCCAA
Target sequence (chain): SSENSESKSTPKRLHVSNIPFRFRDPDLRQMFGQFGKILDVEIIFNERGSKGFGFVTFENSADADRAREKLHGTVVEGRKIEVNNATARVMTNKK
`GUGAGGAAAUGUUUGGGAGAGGACUUUCUAAGCUCUAUUUAGGUGUUAGAUCUAAUUACUUAUAGAUUCUGUAGUCUGGUGAAGGUGUGGGUGACGUGAUGAGAGGUUUG` — result for “RBNS enrichment (R)”: 1.83.
For `UCAAGAAUUUUCUGGAAAUUACUCCCUUUCACAUGGUUGAACUCUUAAGUUGACCAGUUCUCAUAGCUCUAUCACUAGAAUGGUUUGCAGAUACCCCAAACAUACUAUGA`, “RBNS enrichment (R)” read 0.418.
Under “RBNS enrichment (R)”, `AAUUCCCCACAAGCGCCUGCGCCAGCCCCCUCCCUGCUACCUCACAGCCUGGGAUGGCUCCAACUUCUUGCCCCUUCGGACCAAGUCCUGUGGCCAUGAAGUCGUCUCCU` is recorded as 0.36.
`CUGUCUUUUUUACUUGUCUCAUUUUCUUUCACAGCACUGAGGUCUCACCAAAUUUUCUAAUUUUUAUUGUUAAUGACCGUUUUACUAUUAAAUAUAUGCAUGAUCCAAGC` — result for “RBNS enrichment (R)”: 1.74.
For `UCCAGAGGUUAAGAUGUAUUAGAAUUAUACAAUAUCAGUUUAAAAAUCUGUAUGCAUAAAGAAUGCACCACUCAACUUUUUUAUUCAUAAGCUAAUAUUUUUUUAAAGUU`, “RBNS enrichment (R)” read 1.01.
For `UUUGGUUAUUUUCAUAAUCUGGUAUUGCAUUUUGCCUUCCCUGUUCAUACCUCAAAUUGAUUCAUACCUCAGUUUAAUUCAGAGAGGUCAGUUAAGUGACGGAUUCUGUU`, “RBNS enrichment (R)” read 1.52.
For `UGUCACACAAGCAUCUCAAAGUCAAAAGCCAUCUGGGGCUGCUGCUUCUGUUUCUCAGGCUCUGGGGAAAGGAAUCUCCCUCUCCUCUCACUUGAUUCCAAGUGUGGUUG`, “RBNS enrichment (R)” read 0.378.
Under “RBNS enrichment (R)”, `GAGCCGUUGGGCGGUGCGCCAGAGGGACUGAAAUCUAUUUUGUCCCUAAAUAUUUUUUUAAAGAAUUGACCAAAUAAGUUUUUUUUUUUUUUUGCAUACUUGAGCGCUGC` is recorded as 1.03.
For `UUUUUUAAACCUGAUAUUUUCAUUCCUAAUUGAGUGACAGCCAUCUUUUAAGGUGUUGGGCAUGGAACCCCAGGCCUUACCUGCUUGGCAAGUGCUUUACCCCCGAACUA`, “RBNS enrichment (R)” read 0.413.
Under “RBNS enrichment (R)”, `AAUGUAAAAUACUAUCUUUUAUGUCUAAAGCCAUUUUAUAUUACUUUUCAAUAAAAAGAAUAUCAUGGUCAACAUAGAAUAUUUUUCAUGAAUUGGUGGGGAGAUGUAUA` is recorded as 0.33.
`GCCUCAAUGUGAAUCAGACCCUACCCCACCACGAUGUGGCCCUGGCCUGCUGGGCUCUCCACCUCAGCCUUGGAUAAUGCUGUUGCCUCAUCUAUAACAUGCAUUUGUCU`: “RBNS enrichment (R)” 0.461.
`UAAAUAUUUUUUAAAAGAAACGGAUUUGAGCCUCCUUGAUUUUAAUAGAGAACUUCUAGUGUAUGGAUUUAAAGAUUUCUCUUUUUCAUUCAUAUACCAUUUUAUGAGUU`: “RBNS enrichment (R)” 0.573.

Study 3 — method: RNA Bind-n-Seq; form: RNA; medium: in vitro; concentration: not given; reference: input RNA pool; reading: higher = stronger binding
Target: RING finger protein unkempt homolog, zinc fingers 1-6, GST-SBP tag (UNK, Homo sapiens, UniProt Q9C0B0, residues 30-357)
Sequence of UniProt Q9C0B0 (30-357, looked up): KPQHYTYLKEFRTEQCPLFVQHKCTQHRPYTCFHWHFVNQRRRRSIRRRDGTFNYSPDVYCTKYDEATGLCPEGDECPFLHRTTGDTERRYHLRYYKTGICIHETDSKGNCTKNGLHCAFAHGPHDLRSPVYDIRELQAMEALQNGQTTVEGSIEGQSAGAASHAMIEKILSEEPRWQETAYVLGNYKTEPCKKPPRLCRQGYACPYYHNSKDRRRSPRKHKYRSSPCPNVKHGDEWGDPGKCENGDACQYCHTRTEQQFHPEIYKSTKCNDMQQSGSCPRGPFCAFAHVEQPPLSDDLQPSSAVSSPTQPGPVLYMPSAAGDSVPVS
Setting: RNA with constant flanks, human and mouse sites, ends assumed
All sequences stand within: GGGAGUUCUACAGUCCGACGAUC … CAACAGAGGAUUGAGCAUCA
With `GUGGCUAAGAUUCCCGCCGCUGCUGCCUCCCGGUGCUUCCCGGGGUGAUCUGUCACCAGGAGCAGUGUCGAAGACGCCGCUCACGGUGGGAACAUGAAUCUCCUACCUAAAAGCUCCAAG` the bound/input enrichment was 0.104 ratio.
`UCCUGGAUGUGACAUUACUUAUUAAUCUUUUAGACAACCCUGUUAGGGAGGGUUCUUUACCUUUGAUCUCCUAUGGCCUUAUUCAGGAGGAAACCCCUGUGUCUUGAGACCAGGAAGAUA` gave a bound/input enrichment of 2.41 ratio.
For `UACCAGGGAAUCUGGAAACCAAGGAAAAUACCAAAUCCAGAUUUCUUUGAAGACCUAGAACCUUUUAAGAUGACUCCUUUCAGUGCUAUUGGUUUGGAGCUCUGGUCCAUGACAUCCGAC`, the bound/input enrichment was 0.235 ratio.
`AGUGCAGUUUUCCCUGAGAUACCUGUCGUGAAAAGGUUUAUGGGACAGUUUUUCAGAAAGAUGCAUUGACUCUGAAGUUCUCUCUGUUGAGAGCGUCUUCAGUUGGAAGACUUGGAACUG` has a bound/input enrichment of 0.102 ratio.
`AGCUCAUCUAGCAAGGAGAAGAGUGAGACGGAAAAGGAAACUUCUUUGGUAAAACAAACAUUGGCUAAAAUGCAGCAGCAAGAGCAAAAGGAGCAGGCCCAGUGGACUCCUACUAAGUUU` gave a bound/input enrichment of 0.265 ratio.
`ACAUUUGUUCAGCAUUAUGCUUUUAUUAUGAAAACACUGAAGAAAAGUCACGAAUCAGAUACAAUGUCCAACAGAAUUGUGCAUAUUAGUGUUCAGUUGUUCAGCAAUGAGGAGCUAGCC` gave a bound/input enrichment of 0.161 ratio.
With `CUAAGUGUCCUCCGUUUGCUCCUUGUGACCAUGGGACUCCUCUUUGUUUUGCUCCUCCUCCUGAUCAUCCUUACCGAGUCUGACCUUGACAUUGCCUUUUUCCGUGAUAUCCGCCAGACC` the bound/input enrichment was 0.162 ratio.
The bound/input enrichment of `AGGAUGGGGUUUGUGAAAGUUGUCAAGAAUAAGGCCUACUUUAAAAGAUACCAAGUGAGAUUUCGAAGGCGGCGAGAGGGUAAAACUGACUACUAUGCUCGAAAACGAUUGGUGAUCCAG` is reported as 0.222 ratio.
`GUGAAGUUUGGGGAAAGCAUUGAGGACUUGCACACCUGCCGUCUCUUAAUUAAACAGGACAUUCCUGCAGGACUUUAUGUGGAUCCGUAUGAGUUGGCUUCAUUACGAGAGAGAAACAUA` gave a bound/input enrichment of 0.368 ratio.
For `AAGGAAUUAUAUAUUCAGCAUGCUAAAGAGGACGAAACUCGUUAUCAUAAUGAAAUGAAGUCUUGGGAAGAACAAAUGAUUGAAGUUGGACGAAAGGAUCUUCUACGUCGCACAAUAAAG`, the bound/input enrichment was 0.327 ratio.
`AGGAGUGUACGGCUAGUCAGAGACAAAGACACAGAUAAAUUUAAAGGAUUCUGCUAUGUAGAAUUCGAUGAAGUGGAUUCCCUUAAGGAAGCCUUGACAUACGAUGGUGCACUGUUGGGC` has a bound/input enrichment of 0.311 ratio.

Study 4 — method: aptamer microarray, sandwich; form: DNA with 2'F-ANA; medium: in vitro; concentration: 200 nM; added: Cy3 exosite-II aptamer, 400 nM; reading: higher = stronger binding; oligonucleotide: GGTTGGTGTGGTTGG
Target: Prothrombin, mature alpha-thrombin (F2, Homo sapiens, UniProt P00734)
Setting: whole 15-mer aptamer, many near background
`2'F-ANA at 1 2 6 7 9 10 13`: “mean fluorescence intensity” 48.8 a.u.
Under “mean fluorescence intensity”, `2'F-ANA at 3 6 7 8 9 10 15` is recorded as 517 a.u.
Under “mean fluorescence intensity”, `2'F-ANA at 2 4 5 6 8 9 10 12 14 15` is recorded as 47.6 a.u.
`2'F-ANA at 2 4 5 6 7 9 12`: “mean fluorescence intensity” 131 a.u.
For `2'F-ANA at 1 3 8 9 13`, “mean fluorescence intensity” read 262 a.u.
Under “mean fluorescence intensity”, `2'F-ANA at 1 3 4 5 7 8 13 14` is recorded as 49.9 a.u.
Under “mean fluorescence intensity”, `2'F-ANA at 2 4 5 6 12 14 15` is recorded as 50.4 a.u.
For `2'F-ANA at 1 2 3 4 8 9 10 15`, “mean fluorescence intensity” read 90.3 a.u.
`2'F-ANA at 4 5 7 9 10 12 14 15` — result for “mean fluorescence intensity”: 49.1 a.u.
`2'F-ANA at 1 2 3 4 6 7 8 9 10 13` — result for “mean fluorescence intensity”: 57.6 a.u.
Under “mean fluorescence intensity”, `2'F-ANA at 4 5 10 13 15` is recorded as 44.6 a.u.
`2'F-ANA at 2 6 7 10` — result for “mean fluorescence intensity”: 204 a.u.
Under “mean fluorescence intensity”, `2'F-ANA at 1 2 6 7 9 10 12 13 14 15` is recorded as 52 a.u.
`2'F-ANA at 1 2 4 8 9 11`: “mean fluorescence intensity” 126 a.u.
For `2'F-ANA at 1 2 3 4 5 6 8 9 12`, “mean fluorescence intensity” read 121 a.u.
Under “mean fluorescence intensity”, `2'F-ANA at 2 3 4 6 7 8 13 14` is recorded as 259 a.u.
`2'F-ANA at 1 8 9 10 13 14 15` — result for “mean fluorescence intensity”: 56.7 a.u.
`2'F-ANA at 1 2 6 8 9 11 13 14`: “mean fluorescence intensity” 49.5 a.u.

A few entries again (study 4):
`2'F-ANA at 1 2 6 7 9 10 13`: “mean fluorescence intensity” 48.8 a.u.
Under “mean fluorescence intensity”, `2'F-ANA at 2 3 4 6 7 8 13 14` is recorded as 259 a.u.
Under “mean fluorescence intensity”, `2'F-ANA at 1 2 6 7 9 10 12 13 14 15` is recorded as 52 a.u.
Under “mean fluorescence intensity”, `2'F-ANA at 2 4 5 6 8 9 10 12 14 15` is recorded as 47.6 a.u.
For `2'F-ANA at 1 2 3 4 5 6 8 9 12`, “mean fluorescence intensity” read 121 a.u.
`2'F-ANA at 2 4 5 6 7 9 12`: “mean fluorescence intensity” 131 a.u.
Under “mean fluorescence intensity”, `2'F-ANA at 4 5 10 13 15` is recorded as 44.6 a.u.
